Results from different studies.
Each line is one published result; not all experiments were run side by side. Numbers after ± are the reported error. Bridge positions count the residues as written; N and C are the ends. Square brackets hold non-standard residues; d marks the D form. Where no end group is shown, it is not given here. Ends that are not written are not given here. [ ]: non-standard residue; d: D form.
B1: protein (Escherichia coli, UniProt P52126); chain MTEIYEQAKHSLQGEDFSSFNYLFAVNKLLSNPVSYDLGRDLIVRALDSRERFSEHTTILKNMVRKSGLFPYLKKEFTSLTPDDLRVLELYRTPFSDGYVFHSMQFHIFDLLKSGQNVVLSAPTSMGKSAIVDSLLGMGTLKRLVLVVPTVALADETRRRLQERFGDRYQIIHHSSQVCHSDQAVYVLTQERVNERDDIVDIDLFVIDEFYKLAFRQLKSGDIDHQDERVIELNIALSKLLKVSRQFYLTGPFVNSIRGLEKLGYPHTFVSTDFNTVALDVKTFGIKANDDKAKLKALGEIAHACVDATIIYCKSPTVAGLVARELIRLGHGTPTENPHVDWVSEEFDADWDYTVALRNGIGLHFGALPRALQQYTADQFNAGKLRFLLCTSTIIEGVNTIAKNVVIYDNRDGTRSIDKFTHGNIKGRAGRMGVHFVGKIFCLEEIPEDNLNQEVDIPLGIQGIDTPINLLASVQPDHLSEFSQDRFDEVFINDRVSIDLVKKHSYFRVEQFEMLQSMFEMMDDNEFSSLVFHWTPATNFLKTFAKIIARLVPHTFSRNGVPVKPTDVMIAKLAGYLSAESYSEYLKNQIDYARQWISEGEKRTLSIALNNDLKLITNTFGYTLPKVLSLMEDVVKHHAVKRGIRSKVDYTHVKLAFESFHLPPGVNALEEIGIPIQTLHRLVDLLEFSDEADVDELSQYLRDTQDIWSRSIGYVDQMFIRRALGIRRH
Chain of UniProt P43403 (whole entry, looked up): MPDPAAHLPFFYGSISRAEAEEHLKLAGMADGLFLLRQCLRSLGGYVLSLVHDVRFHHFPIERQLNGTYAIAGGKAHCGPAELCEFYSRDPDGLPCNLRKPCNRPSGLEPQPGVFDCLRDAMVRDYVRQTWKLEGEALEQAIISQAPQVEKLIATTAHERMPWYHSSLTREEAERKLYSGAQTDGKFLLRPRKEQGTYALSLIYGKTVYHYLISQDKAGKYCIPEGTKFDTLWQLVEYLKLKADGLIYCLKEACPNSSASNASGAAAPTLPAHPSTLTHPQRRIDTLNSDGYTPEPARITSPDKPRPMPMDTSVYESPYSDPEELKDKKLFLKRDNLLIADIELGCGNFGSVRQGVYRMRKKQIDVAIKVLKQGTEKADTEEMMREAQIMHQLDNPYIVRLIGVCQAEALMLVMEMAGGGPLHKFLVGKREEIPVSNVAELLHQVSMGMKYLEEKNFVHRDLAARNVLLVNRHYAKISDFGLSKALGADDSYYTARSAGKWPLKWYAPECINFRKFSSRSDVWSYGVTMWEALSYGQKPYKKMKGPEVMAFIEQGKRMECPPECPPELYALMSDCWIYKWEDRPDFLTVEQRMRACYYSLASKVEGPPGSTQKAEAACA
Chain of UniProt P00730 (whole entry, looked up): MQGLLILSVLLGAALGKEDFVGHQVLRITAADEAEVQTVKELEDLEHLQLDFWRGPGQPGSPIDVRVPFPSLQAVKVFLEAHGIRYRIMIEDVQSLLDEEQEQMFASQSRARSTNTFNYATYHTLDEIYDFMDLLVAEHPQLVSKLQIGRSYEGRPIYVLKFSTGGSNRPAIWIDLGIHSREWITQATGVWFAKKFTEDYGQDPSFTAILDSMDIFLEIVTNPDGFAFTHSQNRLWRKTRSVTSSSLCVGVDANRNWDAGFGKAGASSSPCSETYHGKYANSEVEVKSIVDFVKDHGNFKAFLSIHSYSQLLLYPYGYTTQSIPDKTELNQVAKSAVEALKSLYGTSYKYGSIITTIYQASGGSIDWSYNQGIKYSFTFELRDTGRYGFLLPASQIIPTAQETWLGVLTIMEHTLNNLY
Chain of UniProt O15392 (whole entry, unmodified, looked up): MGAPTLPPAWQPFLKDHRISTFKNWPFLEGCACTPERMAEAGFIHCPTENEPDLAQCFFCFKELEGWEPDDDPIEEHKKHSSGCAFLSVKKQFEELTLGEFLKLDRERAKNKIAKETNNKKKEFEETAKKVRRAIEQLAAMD
Chain of UniProt P03018 (whole entry, looked up): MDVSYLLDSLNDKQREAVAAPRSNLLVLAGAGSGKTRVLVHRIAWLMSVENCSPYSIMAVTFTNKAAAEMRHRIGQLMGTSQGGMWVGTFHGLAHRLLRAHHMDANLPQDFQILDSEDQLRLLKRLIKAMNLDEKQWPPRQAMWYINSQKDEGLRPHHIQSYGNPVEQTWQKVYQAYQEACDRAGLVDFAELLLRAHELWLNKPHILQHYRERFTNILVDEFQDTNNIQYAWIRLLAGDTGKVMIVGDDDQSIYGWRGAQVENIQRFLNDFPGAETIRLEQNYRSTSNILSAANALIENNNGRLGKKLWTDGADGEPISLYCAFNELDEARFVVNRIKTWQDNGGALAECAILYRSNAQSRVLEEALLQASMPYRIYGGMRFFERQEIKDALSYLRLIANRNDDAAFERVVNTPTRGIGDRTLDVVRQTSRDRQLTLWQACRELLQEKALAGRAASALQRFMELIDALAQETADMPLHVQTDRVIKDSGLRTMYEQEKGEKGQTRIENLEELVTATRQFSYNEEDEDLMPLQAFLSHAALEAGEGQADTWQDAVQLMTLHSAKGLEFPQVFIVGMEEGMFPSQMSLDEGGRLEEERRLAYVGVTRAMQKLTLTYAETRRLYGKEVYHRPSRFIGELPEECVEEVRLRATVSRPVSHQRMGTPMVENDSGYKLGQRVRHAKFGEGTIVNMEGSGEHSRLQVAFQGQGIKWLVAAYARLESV

For `RmS-6, glycosylated (Rhipicephalus microplus)`, the protease inhibition was 73.5% (trypsin (Bos taurus); chromogenic substrate hydrolysis, inhibitor; 1 µM).
Under Kd, `CNCKAPETALCARRCQQH-NH2 (Apamin; disulfide 1-11, 3-15; sequence looked up)` is recorded as “no binding” (Protein Mdm4, residues 24-108 (MDM4, Homo sapiens, UniProt O15151); SPR competition; peptide, synthetic MDMX (24-108); together with: immobilized p53 (15-29)).
`MENVKKATATTTWMVPTAQ (L3MBTL3 52-70 (Homo sapiens, UniProt Q96JM7-2); sequence looked up)` has a Kd of 4.5 µM (Rbpj 53-474 E260K (Mus musculus, UniProt P31266); ITC; peptide; pH 6.5, 25 °C, NaCl 150 mM, one site model).
`Ac-VLRKTRHVNILLFMG (BRAF 504-518; N-terminal acetyl)` has a Kd of 0.8 ± 0.083 µM (BRAF kinase domain with dimer interface; fluorescence titration; peptide).
`uvrD (Escherichia coli, UniProt P03018)`: “molecule per partner” 2 (rpoA/rpoB/rpoC/rpoZ (Escherichia coli); dynamic light scattering).
The protease inhibition of `RmS-3, glycosylated (Rhipicephalus microplus)` is reported as < 20% (PLAU (Homo sapiens, UniProt P00749); chromogenic substrate hydrolysis, inhibitor; 1 µM).
The IC50 of `GCVRLHESCLGQQVPCCDPAATCYCYGRGDNDLRCYCR (AgRP variant)` is reported as 20 nM (ITGAV/ITGB3 whole, on cells (Homo sapiens); competition with labeled echistatin, radioligand binding; designed binder, U87MG; 3 h, room temperature, together with: 125I-echistatin 0.06 nM).
`MLDHILNKFWILHYAGSGSSG (SPAM peptide del2-4; peptide-RNA fusion)` gave a relative binding of < 25% (CD274 ectodomain (Homo sapiens); radioligand binding; peptide; relative to: full-length SPAM, higher = more binding).
`VLRKTRHVNILLFAG (BRAF 504-518 M517A)` has a Kd of 0.54 ± 0.15 µM (BRAF kinase domain with dimer interface; fluorescence titration; peptide).
With `MoaA peptide (Staphylococcus aureus)` the restored activity was > 5 fold (moaA D206A/G340A (Staphylococcus aureus, UniProt P69848); MoaA/MoaC coupled assay; 200 µM; relative to: 8-mer peptide, higher = more activity).
With `GVLRKDRHVNILLFMGYST (BRAF 503-521 T508D)` the Kd was 2.2 ± 0.83 µM (BRAF kinase domain with dimer interface; fluorescence titration; peptide).
`YKV[hTyr][NMehTyr]I (anabaenopeptin 915; lactam 2-C (inferred); also: Tyr1 joined to Lys2 via CO (ureido) bond; hTyr = N[C@@H](CCc1ccc(O)cc1)C(=O)O; NMehTyr = CN[C@@H](CCc1ccc(O)cc1)C(=O)O)` gave an IC50 of 0.12 µg/mL (Carboxypeptidase A1 (CPA1, Bos taurus, UniProt P00730); enzyme activity, inhibitor; pH 7.5, together with: hippuryl-L-phenylalanine 1 mM).
For `MIFLDHILNKFWILHYAGSGSSG (SPAM peptide del2; peptide-RNA fusion)`, the relative binding was < 25% (CD274 ectodomain (Homo sapiens); radioligand binding; peptide; relative to: full-length SPAM, higher = more binding).
For `B1 (protein)`, “molecule per partner” read 1 (hamA (Escherichia coli, UniProt P52127); cryo-EM).
The Kd of `VLRKTRHVNALLFMG (BRAF 504-518 I513A)` is reported as 2.69 ± 0.35 µM (BRAF kinase domain with dimer interface; fluorescence titration; peptide).
With `AR[pT]KQTARKSTGGKA (histone H3 2-16 (UniProt P68431); pT3; pT = C[C@@H](OP(=O)(O)O)[C@H](N)C(=O)O; sequence looked up)` the Kd was 10.2 ± 1 µM (BIRC5 K62A (Homo sapiens, UniProt O15392); ITC; peptide; pH 7.5, 25 °C, NaCl 100 mM).
The Kd of `GVARKTRHVNILLFMGYST (BRAF 503-521 L505A)` is reported as 3.89 ± 0.53 µM (BRAF kinase domain with dimer interface; fluorescence titration; peptide).
The Kd of `AR[pT]KQTARKSTG (H3C1 1-12; pT3; pT = C[C@@H](OP(=O)(O)O)[C@H](N)C(=O)O)` is reported as 2.85 ± 0.06 µM (BIRC5 1-142 (Homo sapiens, UniProt O15392); ITC; peptide; pH 6.8, 37 °C).
The Kd of `GVLRKTRHVNILIFMGYST (BRAF 503-521 L515I)` is reported as 4.1 ± 1.1 µM (BRAF kinase domain with dimer interface; fluorescence titration; peptide).
The Ki of `CGNQL[pY]NELNLGRREE (CD247 residues 69-82; phosphotyrosine; pY = N[C@@H](Cc1ccc(OP(=O)(O)O)cc1)C(=O)O)` is reported as 125 µM (ZAP70 1-606 (Homo sapiens, UniProt P43403); competition with labelled peptide, fluorescence polarisation; peptide).
For `GVLRKTRHVNIALFMGYST (BRAF 503-521 L514A)`, the Kd was 9.8 ± 1.6 µM (BRAF kinase domain with dimer interface; fluorescence titration; peptide).
The protease inhibition of `RmS-17, glycosylated (Rhipicephalus microplus)` is reported as 98% (F11 factor XIa (Homo sapiens); chromogenic substrate hydrolysis, inhibitor; 1 µM).

Repeated from above:
The protease inhibition of `RmS-3, glycosylated (Rhipicephalus microplus)` is reported as < 20% (PLAU (Homo sapiens, UniProt P00749); chromogenic substrate hydrolysis, inhibitor; 1 µM).
